# Assay results pooled from the literature.
# Parts stem from different laboratories: compare values within a part only.

# Sample 1
# Target: Phosphate system positive regulatory protein PHO4, full length, GST-tagged (PHO4, Saccharomyces cerevisiae, UniProt P07270, residues 1-312)
# Method: competition protein-binding microarray
# Form: double-stranded DNA, one strand shown
# Medium: in vitro
# Tested at: 2 µM
# Setting: whole 60-bp probe, lowest competitor level
# Added: Cbf1 competitor, 0.05 µM
# Reading: higher = stronger binding
# Residues (chain): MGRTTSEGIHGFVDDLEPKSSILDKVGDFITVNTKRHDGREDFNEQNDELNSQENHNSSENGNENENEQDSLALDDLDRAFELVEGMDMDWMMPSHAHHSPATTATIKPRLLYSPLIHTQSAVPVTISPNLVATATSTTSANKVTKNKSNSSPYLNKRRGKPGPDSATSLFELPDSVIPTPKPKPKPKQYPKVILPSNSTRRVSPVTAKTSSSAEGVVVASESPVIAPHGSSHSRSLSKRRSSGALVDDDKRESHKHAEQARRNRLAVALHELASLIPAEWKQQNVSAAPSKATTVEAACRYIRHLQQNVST
Sequence,fluorescence intensity [a.u.]
AAATCTGATTCTCACCACGTGCAAAAAAGATTGTACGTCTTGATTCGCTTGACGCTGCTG,17000
GACTTTAGCTGCAACGGCGTGGGTATGCCGCAGCGGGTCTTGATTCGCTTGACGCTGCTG,7800
AAACTGTGTATGTTACACGTGAAGCGAGGCTTGGAAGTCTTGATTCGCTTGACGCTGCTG,11500
GACATCAAATGCAAGCACATGAAGCTGGAACTTCGCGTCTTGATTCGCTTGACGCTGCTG,6330
AGTATCCTCGACCTACACGTCTTCACCATCGGCTTCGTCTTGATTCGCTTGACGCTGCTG,4960
TTGGTGCTTTCTTTGCACGTTCTGCCAAAGTGTTTCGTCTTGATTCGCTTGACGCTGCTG,11500
AAATTACTAAGTTGTCACCTTACTTACCCCGTATGAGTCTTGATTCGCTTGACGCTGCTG,4040
TTCCTAGACTGGTCCCACGTTGGGAAAAACCAATCAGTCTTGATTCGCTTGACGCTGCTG,12600
ATAGATAGATGGCCGAACGTGGAATGCCTCTATGGGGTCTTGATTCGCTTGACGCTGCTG,10600

# Sample 2
# Target: TAR DNA-binding protein 43, full length, His tag (TARDBP, Homo sapiens, UniProt Q13148, residues 1-414)
# Method: RNA Bind-n-Seq
# Form: RNA
# Medium: in vitro
# Tested at: 20 nM
# Setting: 6-mer, flanks averaged, single round
# Added: 150 mM KCl
# Baseline: input library
# Reading: higher = stronger binding
Sequence,6-mer enrichment (R)
CCAAUU,0.633
UCAGAA,0.657
UCGGCC,0.804
UCGUCU,0.579
CUCUUC,0.541

# Sample 3
# Target: Histone acetyltransferase KAT6A, both winged helices, GST fusion (KAT6A, Homo sapiens, UniProt Q92794, residues 1-181)
# Method: protein binding microarray
# Form: double-stranded DNA, one strand shown
# Medium: in vitro
# Tested at: not given
# Setting: 8-mer, flanks averaged, mean of 2 arrays, mostly near background
# Baseline: not given
# Reading: higher = stronger binding
# Residues (chain): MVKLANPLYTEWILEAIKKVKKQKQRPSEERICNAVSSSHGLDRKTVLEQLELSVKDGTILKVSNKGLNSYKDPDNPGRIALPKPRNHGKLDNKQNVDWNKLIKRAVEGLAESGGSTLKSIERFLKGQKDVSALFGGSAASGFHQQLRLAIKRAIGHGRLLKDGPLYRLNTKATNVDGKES
Sequence,E-score
CTTCAAAG,-0.111
GACTGTGC,0.0745
GAGTGCCA,-0.131
ACGCTGCT,0.0101
GAAGTTAC,-0.114
ACGGCACT,0.247
AAAGGTAC,-0.0825
CATCCTGG,-0.122
CAGATCGC,0.145
ATAAAGGC,-0.0807
AGGCTTAT,-0.144

# Mixed results
Molecule,target,assay,test system,setting,how to read,measurement,value
"PhoQ, residues 284 288 289 292 302 303 TNASYF","PhoP, residues 12 14 15 18 19 GHCSL (Escherichia coli, UniProt P23836)","Sort-seq, refers to: YFP reporter",E. coli,"PhoQ-PhoP variant library, added: 10 µM Mg2+","baseline: high Mg2+ state, higher = stronger signaling",fold induction,13.7

# Repeated from above (sample 1):
Sequence,fluorescence intensity [a.u.]
AAACTGTGTATGTTACACGTGAAGCGAGGCTTGGAAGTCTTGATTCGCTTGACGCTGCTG,11500
GACATCAAATGCAAGCACATGAAGCTGGAACTTCGCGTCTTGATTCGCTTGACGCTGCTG,6330
AGTATCCTCGACCTACACGTCTTCACCATCGGCTTCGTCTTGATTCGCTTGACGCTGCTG,4960
TTGGTGCTTTCTTTGCACGTTCTGCCAAAGTGTTTCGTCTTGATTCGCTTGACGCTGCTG,11500
